# Results pooled from the literature.
# Each line is one published result; not all experiments were run side by side. ± gives the spread as reported.
Compound,organism,assay,test system,setting,how to read,endpoint,result
C[C@@](O)(C(F)F)[C@H](NC(=O)c1ccc(C#CC#CC2CC2)cc1)C(=O)NO,Yersinia,,,,,MIC50,0.064 µg/mL
CCCCCCCCCC(=O)OCC1OC(n2cc(C)c(=O)[nH]c2=O)CC1N(C)C (centres unmarked),vesicular stomatitis virus,viral replication,HEL,,,EC50,> 0.23 µM
FC(F)(F)c1ccc(-c2ccc(Cn3ccnc3)cc2)cc1,Mycobacterium tuberculosis variant bovis BCG,microbial growth,BCG,,,MIC50,0.8 µg/mL
CC(=C(c1ccc(Cl)cc1)c1ccc(OCCN2CCOCC2)cc1)c1ccc(Cl)cc1,influenza A virus H1N1,"cytopathic effect, visual CPE",MDCK,,,EC50,> 7.1 µg/mL
Cc1ccc2nc(C)c(C(=O)NCc3cccs3)n2c1,Mycobacterium tuberculosis variant bovis BCG,microbial growth,BCG,,,MIC,0.5 µM
O=C(NC12CC3CC(CC(C3)C1)C2)N1CCCC2=CC3CC(CN4CCCCC34)C21 (centres unmarked),vesicular stomatitis virus,pseudovirus entry,,VSV G pseudovirus,,EC50,107 µM
CCC(=C(c1ccc(Cl)cc1)c1ccc(OCCCN(C)C)cc1)c1ccc(OC)cc1,influenza A virus H1N1,"cytopathic effect, visual CPE",MDCK,,,EC50,> 3.2 µg/mL
CC(C)C[C@H](NC(=O)[C@H](CC(N)=O)NC(=O)[C@H](CCCCN)NC(=O)[C@H](CC(C)C)NC(=O)[C@H](Cc1ccccc1)NC(=O)CNC(=O)[C@H](CC(C)C)NC(=O)[C@@H](N)Cc1ccccc1)C(=O)N[C@@H](Cc1ccccc1)C(N)=O,hepatitis C virus,,"Huh-7.5.1, JFH-1","concentration not given, added after infection, added: 50 µM chloroquine",relative to: chloroquine alone,HCV RNA reduction,30%
COc1ccc(CC(C)=C(c2ccc(Cl)cc2)c2ccc(OCCN3CCCCC3)cc2)cc1,influenza A virus H1N1,"cytopathic effect, visual CPE",MDCK,,,EC50,> 3.2 µg/mL
CN(C(=O)CN1CCCC2=CC3CC(CN4CCCCC34)C21)c1ccc(Br)cc1 (centres unmarked),vesicular stomatitis virus,pseudovirus entry,,VSV G pseudovirus,,EC50,153 µM
CCC(=C(c1ccc(Cl)cc1)c1ccc(OCCN(C)C)cc1)c1ccc(Cl)cc1,influenza A virus H1N1,"cytopathic effect, visual CPE",MDCK,,,EC50,0.72 µg/mL
COc1ccc2nc(C)cc(OCC(=O)Nc3cc(C)cc(C)c3)c2c1,Mycobacterium tuberculosis variant bovis BCG,microbial growth,BCG,,,MIC,0.5 µM
CCCCCC(=O)NCC(=O)N[C@@H](CC(C)C)C(=O)N[C@@H](CC(C)C)C(=O)N[C@@H](CCCCN)C(=O)N[C@@H](CCCNC(=N)N)C(=O)N[C@H](C(=O)N[C@@H](CCCCN)C(=O)N[C@H](C(=O)N[C@@H](CC(C)C)C(=O)N[C@@H](CC(C)C)C(N)=O)[C@@H](C)O)[C@@H](C)CC,five bacterial species,bacterial growth,,,,geometric mean MIC,48.5 µM
Cc1cccc(-c2nc(Nc3ccncn3)c3c(C)csc3n2)n1,Mycobacterium tuberculosis variant bovis BCG,microbial growth,"THP-1, BCG",intracellular,,MIC,> 10 µM
CCCCCCCCCCCC(=O)NCC(=O)N[C@@H](CC(C)C)C(=O)N[C@@H](CC(C)C)C(=O)N[C@@H](CCCCN)C(=O)N[C@@H](CCCNC(=N)N)C(=O)N[C@H](C(=O)N[C@@H](CCCCN)C(=O)N[C@H](C(=O)N[C@@H](CC(C)C)C(=O)N[C@@H](CC(C)C)C(N)=O)[C@@H](C)O)[C@@H](C)CC,five bacterial species,bacterial growth,,,,geometric mean MIC,36.8 µM
Cc1ccc2nc(C(F)(F)F)c(C(=O)NCc3cccc(Cl)c3)n2c1,Mycobacterium tuberculosis variant bovis BCG,microbial growth,"THP-1, BCG",intracellular,,MIC,> 10 µM
CCC(=C(c1ccc(Cl)cc1)c1ccc(OCCN2CCCCC2)cc1)c1ccc(Cl)cc1,influenza A virus H1N1,"cytopathic effect, visual CPE",MDCK,,,EC50,> 3.2 µg/mL
Fc1ccc(-c2ccc(Cn3ccnc3)c(F)c2)cc1F,Mycobacterium tuberculosis variant bovis BCG,microbial growth,BCG,,,MIC50,0.9 µg/mL
CC[C@H](C)[C@H](NC(=O)[C@H](CCCNC(=N)N)NC(=O)[C@H](CCCCN)NC(=O)[C@H](CC(C)C)NC(=O)[C@H](CC(C)C)NC(=O)CN)C(=O)N[C@@H](CCCCN)C(=O)N[C@H](C(=O)N[C@@H](CC(C)C)C(=O)N[C@@H](CC(C)C)C(=O)NCCCC[C@H](NC(=O)[C@H](CC(C)C)NC(=O)[C@H](CC(C)C)NC(=O)[C@@H](NC(=O)[C@H](CCCCN)NC(=O)[C@@H](NC(=O)[C@H](CCCNC(=N)N)NC(=O)[C@H](CCCCN)NC(=O)[C@H](CC(C)C)NC(=O)[C@H](CC(C)C)NC(=O)CN)[C@@H](C)CC)[C@@H](C)O)C(=O)NCCCC[C@H](NC(=O)[C@H](CCCCNC(=O)[C@H](CC(C)C)NC(=O)[C@H](CC(C)C)NC(=O)[C@@H](NC(=O)[C@H](CCCCN)NC(=O)[C@@H](NC(=O)[C@H](CCCNC(=N)N)NC(=O)[C@H](CCCCN)NC(=O)[C@H](CC(C)C)NC(=O)[C@H](CC(C)C)NC(=O)CN)[C@@H](C)CC)[C@@H](C)O)NC(=O)[C@H](CC(C)C)NC(=O)[C@H](CC(C)C)NC(=O)[C@@H](NC(=O)[C@H](CCCCN)NC(=O)[C@@H](NC(=O)[C@H](CCCNC(=N)N)NC(=O)[C@H](CCCCN)NC(=O)[C@H](CC(C)C)NC(=O)[C@H](CC(C)C)NC(=O)CN)[C@@H](C)CC)[C@@H](C)O)C(N)=O)[C@@H](C)O,five bacterial species,bacterial growth,,,,geometric mean MIC,9.19 µM
CCC(=C(c1ccc(Cl)cc1)c1ccc(OCCN(CC)CC)cc1)c1ccc(Cl)cc1,influenza A virus H1N1,"cytopathic effect, visual CPE",MDCK,,,EC50,> 12 µg/mL
C1=C2CCCN(Cc3ccccc3)C2C2CC1C1CCCCN1C2 (centres unmarked),vesicular stomatitis virus,pseudovirus entry,,VSV G pseudovirus,,EC50,68.9 µM
CCC(=C(c1ccc(Cl)cc1)c1ccc(OCCN2CCOCC2)cc1)c1ccc(Cl)cc1,influenza A virus H1N1,"cytopathic effect, visual CPE",MDCK,,,EC50,> 8.4 µg/mL
Cc1cccc(-c2nc(Nc3ccncn3)c3sccc3n2)n1,Moraxella catarrhalis,"microbial growth, broth dilution",1502,,,MIC,1 µM
O=S(=O)(c1cc(Cl)cc(Cl)c1)N1CCCC2=CC3CC(CN4CCCCC34)C21 (centres unmarked),vesicular stomatitis virus,pseudovirus entry,,VSV G pseudovirus,,EC50,38.5 µM
CCc1ccc([C@@H]2C[C@H](C(F)(F)F)n3ncc(C(=O)NCc4ccc(OC)cc4)c3N2)cc1,Mycobacterium tuberculosis variant bovis BCG,microbial growth,"THP-1, BCG",intracellular,,MIC,0.5 µM
Clc1ccc(CN2CCCC3=CC4CC(CN5CCCCC45)C32)c(Cl)c1 (centres unmarked),vesicular stomatitis virus,pseudovirus entry,,VSV G pseudovirus,,EC50,16.2 µM
COc1ccc2nc(C)cc(OCC(=O)Nc3ccccc3OC)c2c1,Moraxella catarrhalis,"microbial growth, broth dilution",1502,,,MIC,32 µM
O=C(CNc1cccc(F)c1)N1CCCC2=CC3CC(CN4CCCCC34)C21 (centres unmarked),vesicular stomatitis virus,pseudovirus entry,,VSV G pseudovirus,,EC50,> 267 µM
COc1ccc(CCNc2cc(-c3ccccc3)nc3ncnn23)cc1,Moraxella catarrhalis,"microbial growth, broth dilution",1502,,,MIC,32 µM
Cc1cc(Oc2nc(N3CC[C@@H](c4ccncc4)C3)ncc2F)[nH]n1,Mycobacterium tuberculosis,,H37Rv,,,MIC90,0.0086 µM
Cc1nc([C@H](NC(=O)c2ccc(-c3ccc(Cl)cc3)[nH]2)[C@@H]2CCCCN2)sc1CO,vesicular stomatitis virus,viral entry,VSV-G pseudovirus,,,IC50,8.1 ± 1 µM
CCCCCC(=O)NCC(=O)N[C@@H](CC(C)C)C(=O)N[C@@H](CC(C)C)C(=O)N[C@@H](CCCCN)C(=O)N[C@@H](CCCNC(=N)N)C(=O)N[C@H](C(=O)N[C@@H](CCCCN)C(=O)N[C@H](C(=O)N[C@@H](CC(C)C)C(=O)N[C@@H](CC(C)C)C(=O)NCCCC[C@H](NC(=O)[C@H](CCCCNC(=O)[C@H](CC(C)C)NC(=O)[C@H](CC(C)C)NC(=O)[C@@H](NC(=O)[C@H](CCCCN)NC(=O)[C@@H](NC(=O)[C@H](CCCNC(=N)N)NC(=O)[C@H](CCCCN)NC(=O)[C@H](CC(C)C)NC(=O)[C@H](CC(C)C)NC(=O)CNC(=O)CCCCC)[C@@H](C)CC)[C@@H](C)O)NC(=O)[C@H](CC(C)C)NC(=O)[C@H](CC(C)C)NC(=O)[C@@H](NC(=O)[C@H](CCCCN)NC(=O)[C@@H](NC(=O)[C@H](CCCNC(=N)N)NC(=O)[C@H](CCCCN)NC(=O)[C@H](CC(C)C)NC(=O)[C@H](CC(C)C)NC(=O)CNC(=O)CCCCC)[C@@H](C)CC)[C@@H](C)O)C(N)=O)[C@@H](C)O)[C@@H](C)CC,five bacterial species,bacterial growth,,,,geometric mean MIC,13.9 µM
O=C1/C(=N\NC(=S)NN=Cc2cccs2)c2ccccc2N1Cc1ccccc1,vesicular stomatitis virus,viral replication,HEL,,,EC50,> 20 µM
COc1ccc2cc(-c3ccc(Cn4ccnc4)cc3)ccc2c1,Mycobacterium tuberculosis variant bovis BCG,microbial growth,BCG,,,MIC50,0.8 µg/mL
Cc1cccc(F)c1NC(=O)CN1CCCC2=CC3CC(CN4CCCCC34)C21 (centres unmarked),vesicular stomatitis virus,pseudovirus entry,,VSV G pseudovirus,,EC50,> 267 µM
CCCCCCCC(=O)NCC(=O)N[C@@H](CC(C)C)C(=O)N[C@@H](CC(C)C)C(=O)N[C@@H](CCCCN)C(=O)N[C@@H](CCCNC(=N)N)C(=O)N[C@H](C(=O)N[C@@H](CCCCN)C(=O)N[C@H](C(=O)N[C@@H](CC(C)C)C(=O)N[C@@H](CC(C)C)C(N)=O)[C@@H](C)O)[C@@H](C)CC,five bacterial species,bacterial growth,,,,geometric mean MIC,10.6 µM
CCC(=C(c1ccc(Cl)cc1)c1ccc(OCCN2CCOCC2)cc1)c1ccccc1,influenza A virus H1N1,"cytopathic effect, visual CPE",MDCK,,,EC50,> 32 µg/mL
O=C(CN1CCCC2=CC3CC(CN4CCCCC34)C21)Nc1ccc(Br)cc1 (centres unmarked),vesicular stomatitis virus,pseudovirus entry,,VSV G pseudovirus,,EC50,79.9 µM

# Repeated from above:
Compound,organism,assay,test system,setting,how to read,endpoint,result
CCC(=C(c1ccc(Cl)cc1)c1ccc(OCCN(CC)CC)cc1)c1ccc(Cl)cc1,influenza A virus H1N1,"cytopathic effect, visual CPE",MDCK,,,EC50,> 12 µg/mL
CCc1ccc([C@@H]2C[C@H](C(F)(F)F)n3ncc(C(=O)NCc4ccc(OC)cc4)c3N2)cc1,Mycobacterium tuberculosis variant bovis BCG,microbial growth,"THP-1, BCG",intracellular,,MIC,0.5 µM
Fc1ccc(-c2ccc(Cn3ccnc3)c(F)c2)cc1F,Mycobacterium tuberculosis variant bovis BCG,microbial growth,BCG,,,MIC50,0.9 µg/mL
O=C(CNc1cccc(F)c1)N1CCCC2=CC3CC(CN4CCCCC34)C21 (centres unmarked),vesicular stomatitis virus,pseudovirus entry,,VSV G pseudovirus,,EC50,> 267 µM
